{"data": "Published values from different studies", "note": "A part holds a random share of what one study measured.", "sequence of UniProt P32298 (whole entry, looked up)": "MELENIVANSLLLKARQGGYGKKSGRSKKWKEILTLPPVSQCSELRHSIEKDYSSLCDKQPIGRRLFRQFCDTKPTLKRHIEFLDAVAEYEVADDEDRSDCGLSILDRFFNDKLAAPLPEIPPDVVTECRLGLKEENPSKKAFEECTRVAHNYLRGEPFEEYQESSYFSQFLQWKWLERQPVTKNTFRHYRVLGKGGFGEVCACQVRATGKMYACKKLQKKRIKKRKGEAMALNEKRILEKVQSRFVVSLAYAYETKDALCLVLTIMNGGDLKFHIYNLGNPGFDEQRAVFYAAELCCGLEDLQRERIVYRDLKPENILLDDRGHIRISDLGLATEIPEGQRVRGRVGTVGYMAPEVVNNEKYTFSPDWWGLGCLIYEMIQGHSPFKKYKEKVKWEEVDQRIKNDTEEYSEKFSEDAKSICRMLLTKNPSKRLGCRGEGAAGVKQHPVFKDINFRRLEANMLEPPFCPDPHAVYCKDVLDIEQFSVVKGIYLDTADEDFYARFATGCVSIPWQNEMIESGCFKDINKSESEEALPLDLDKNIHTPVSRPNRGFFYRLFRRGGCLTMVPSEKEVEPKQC", "sequence of UniProt P51956 (whole entry, looked up)": "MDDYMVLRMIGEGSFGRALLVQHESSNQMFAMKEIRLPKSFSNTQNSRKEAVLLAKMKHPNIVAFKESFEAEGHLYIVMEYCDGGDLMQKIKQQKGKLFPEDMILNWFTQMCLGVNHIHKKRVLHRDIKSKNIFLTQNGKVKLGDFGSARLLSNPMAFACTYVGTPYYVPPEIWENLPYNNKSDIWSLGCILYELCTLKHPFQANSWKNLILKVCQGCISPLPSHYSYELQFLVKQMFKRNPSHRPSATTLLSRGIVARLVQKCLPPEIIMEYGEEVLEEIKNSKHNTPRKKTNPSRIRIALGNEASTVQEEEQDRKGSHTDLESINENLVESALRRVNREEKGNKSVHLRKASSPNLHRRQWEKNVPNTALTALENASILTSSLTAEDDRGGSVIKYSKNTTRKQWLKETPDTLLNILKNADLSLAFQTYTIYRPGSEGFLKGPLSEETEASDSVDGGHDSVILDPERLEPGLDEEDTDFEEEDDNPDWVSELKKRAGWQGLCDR", "sequence of UniProt Q9H4B4 (whole entry, looked up)": "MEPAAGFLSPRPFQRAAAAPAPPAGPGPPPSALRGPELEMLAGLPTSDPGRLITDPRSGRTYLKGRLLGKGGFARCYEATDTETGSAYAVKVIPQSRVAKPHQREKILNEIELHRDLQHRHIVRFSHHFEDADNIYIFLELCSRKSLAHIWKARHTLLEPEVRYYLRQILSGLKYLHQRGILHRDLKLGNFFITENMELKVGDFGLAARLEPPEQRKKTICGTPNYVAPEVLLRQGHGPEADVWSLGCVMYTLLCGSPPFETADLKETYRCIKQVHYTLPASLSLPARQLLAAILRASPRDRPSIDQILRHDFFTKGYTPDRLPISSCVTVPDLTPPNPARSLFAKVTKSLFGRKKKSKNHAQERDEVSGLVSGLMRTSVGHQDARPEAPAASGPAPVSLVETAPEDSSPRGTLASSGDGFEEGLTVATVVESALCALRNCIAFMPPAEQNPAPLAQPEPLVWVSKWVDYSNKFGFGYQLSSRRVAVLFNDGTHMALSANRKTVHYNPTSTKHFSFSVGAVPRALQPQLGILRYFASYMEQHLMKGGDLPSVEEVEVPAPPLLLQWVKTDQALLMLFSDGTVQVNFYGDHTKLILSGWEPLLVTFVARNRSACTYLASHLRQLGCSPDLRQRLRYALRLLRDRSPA", "sequence of UniProt Q6P2M8 (whole entry, looked up)": "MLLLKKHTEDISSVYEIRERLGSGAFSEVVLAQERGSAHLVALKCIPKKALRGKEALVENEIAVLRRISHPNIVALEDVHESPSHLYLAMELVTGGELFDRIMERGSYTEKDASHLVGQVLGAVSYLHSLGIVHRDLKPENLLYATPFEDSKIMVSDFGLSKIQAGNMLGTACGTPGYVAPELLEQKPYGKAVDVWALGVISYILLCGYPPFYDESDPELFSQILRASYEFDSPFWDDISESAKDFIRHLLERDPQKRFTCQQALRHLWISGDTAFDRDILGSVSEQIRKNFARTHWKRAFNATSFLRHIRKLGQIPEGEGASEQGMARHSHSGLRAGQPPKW", "sequence of UniProt P50750 (whole entry, looked up)": "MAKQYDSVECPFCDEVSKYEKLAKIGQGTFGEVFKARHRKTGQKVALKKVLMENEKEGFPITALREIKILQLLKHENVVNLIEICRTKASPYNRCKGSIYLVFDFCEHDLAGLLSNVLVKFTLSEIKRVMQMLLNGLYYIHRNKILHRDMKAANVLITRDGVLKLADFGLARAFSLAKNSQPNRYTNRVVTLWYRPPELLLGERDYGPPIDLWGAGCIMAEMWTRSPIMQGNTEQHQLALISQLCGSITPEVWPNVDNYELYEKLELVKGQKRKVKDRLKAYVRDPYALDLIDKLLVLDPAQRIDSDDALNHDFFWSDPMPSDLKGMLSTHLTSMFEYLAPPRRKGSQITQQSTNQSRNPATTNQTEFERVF", "sequence of UniProt Q8N4C8 (whole entry, looked up)": "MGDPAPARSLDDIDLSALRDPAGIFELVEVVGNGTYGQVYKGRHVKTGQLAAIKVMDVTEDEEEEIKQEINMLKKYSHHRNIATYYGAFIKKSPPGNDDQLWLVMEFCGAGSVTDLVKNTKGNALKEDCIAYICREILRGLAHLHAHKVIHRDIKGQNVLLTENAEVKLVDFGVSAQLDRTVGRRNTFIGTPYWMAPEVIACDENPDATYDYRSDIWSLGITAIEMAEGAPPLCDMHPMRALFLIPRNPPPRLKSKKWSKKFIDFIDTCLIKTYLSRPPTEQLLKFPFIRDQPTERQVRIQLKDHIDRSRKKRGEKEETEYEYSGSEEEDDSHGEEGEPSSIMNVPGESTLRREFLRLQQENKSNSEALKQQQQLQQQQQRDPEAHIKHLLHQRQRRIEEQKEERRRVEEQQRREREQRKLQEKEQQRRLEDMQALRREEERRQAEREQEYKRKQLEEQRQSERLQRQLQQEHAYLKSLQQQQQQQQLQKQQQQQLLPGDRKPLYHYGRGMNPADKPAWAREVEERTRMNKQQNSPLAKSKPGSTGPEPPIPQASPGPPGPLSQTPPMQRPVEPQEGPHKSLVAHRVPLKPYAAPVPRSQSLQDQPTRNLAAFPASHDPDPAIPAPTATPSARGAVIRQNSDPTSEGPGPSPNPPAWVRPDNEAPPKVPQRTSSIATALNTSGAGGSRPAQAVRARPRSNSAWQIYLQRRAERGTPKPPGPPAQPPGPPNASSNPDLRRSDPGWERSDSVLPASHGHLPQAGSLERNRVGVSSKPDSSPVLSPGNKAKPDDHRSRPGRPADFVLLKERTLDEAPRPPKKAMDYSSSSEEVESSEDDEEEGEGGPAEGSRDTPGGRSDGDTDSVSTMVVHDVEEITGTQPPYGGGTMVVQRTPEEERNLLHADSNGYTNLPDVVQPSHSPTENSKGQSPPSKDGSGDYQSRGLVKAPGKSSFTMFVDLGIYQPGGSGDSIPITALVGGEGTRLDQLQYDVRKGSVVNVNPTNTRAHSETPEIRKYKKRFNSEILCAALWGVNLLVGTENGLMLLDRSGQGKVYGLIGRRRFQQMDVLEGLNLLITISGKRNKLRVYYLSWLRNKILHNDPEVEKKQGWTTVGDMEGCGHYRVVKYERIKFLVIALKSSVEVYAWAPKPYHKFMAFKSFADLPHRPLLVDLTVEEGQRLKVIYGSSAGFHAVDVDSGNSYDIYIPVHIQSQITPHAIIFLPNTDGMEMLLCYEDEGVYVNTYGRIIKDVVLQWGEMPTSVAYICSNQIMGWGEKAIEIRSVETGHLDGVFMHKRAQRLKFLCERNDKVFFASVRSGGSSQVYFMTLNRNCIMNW", "sequence of UniProt Q15759 (whole entry, looked up)": "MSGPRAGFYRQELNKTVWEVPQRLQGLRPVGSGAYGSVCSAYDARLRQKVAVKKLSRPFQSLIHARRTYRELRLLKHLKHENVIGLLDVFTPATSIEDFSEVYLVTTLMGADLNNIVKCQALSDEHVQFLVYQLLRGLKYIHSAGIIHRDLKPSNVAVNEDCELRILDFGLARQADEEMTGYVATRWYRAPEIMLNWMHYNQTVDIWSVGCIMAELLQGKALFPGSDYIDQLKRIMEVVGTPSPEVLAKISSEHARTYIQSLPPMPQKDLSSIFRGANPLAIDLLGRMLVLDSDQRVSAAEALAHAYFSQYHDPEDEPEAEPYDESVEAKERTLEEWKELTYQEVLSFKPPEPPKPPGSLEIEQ", "sequence of UniProt Q92772 (whole entry, looked up)": "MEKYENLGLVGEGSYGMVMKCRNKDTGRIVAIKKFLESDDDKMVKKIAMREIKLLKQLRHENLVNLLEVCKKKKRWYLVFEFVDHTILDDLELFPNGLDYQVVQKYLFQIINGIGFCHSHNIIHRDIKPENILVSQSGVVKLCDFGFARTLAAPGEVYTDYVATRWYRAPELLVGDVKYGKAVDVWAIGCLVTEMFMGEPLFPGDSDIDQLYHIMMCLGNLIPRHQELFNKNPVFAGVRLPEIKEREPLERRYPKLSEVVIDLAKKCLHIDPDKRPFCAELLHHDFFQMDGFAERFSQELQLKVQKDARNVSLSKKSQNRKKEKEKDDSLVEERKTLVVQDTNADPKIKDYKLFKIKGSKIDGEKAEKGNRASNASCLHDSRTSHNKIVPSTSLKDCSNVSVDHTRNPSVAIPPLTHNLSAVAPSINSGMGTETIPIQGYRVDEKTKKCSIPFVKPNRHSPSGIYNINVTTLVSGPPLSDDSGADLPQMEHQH"}
{"data": "Set 1", "target": "RING finger protein unkempt homolog, zinc fingers 1-6, SBP tag (UNK, Homo sapiens, UniProt Q9C0B0, residues 30-357)", "technique": "RNA Bind-n-Seq", "form": "RNA", "medium": "in vitro", "concentration": "100 nM", "setting": "RNA with constant flanks, vertebrate orthologous sites, ends assumed", "baseline": "input RNA pool", "direction": "higher = stronger binding", "constant ends, left off below": "GGGAGUUCUACAGUCCGACGAUC … CAACAGAGGAUUGAGCAUCA", "sequence of UniProt Q9C0B0 (30-357, looked up)": "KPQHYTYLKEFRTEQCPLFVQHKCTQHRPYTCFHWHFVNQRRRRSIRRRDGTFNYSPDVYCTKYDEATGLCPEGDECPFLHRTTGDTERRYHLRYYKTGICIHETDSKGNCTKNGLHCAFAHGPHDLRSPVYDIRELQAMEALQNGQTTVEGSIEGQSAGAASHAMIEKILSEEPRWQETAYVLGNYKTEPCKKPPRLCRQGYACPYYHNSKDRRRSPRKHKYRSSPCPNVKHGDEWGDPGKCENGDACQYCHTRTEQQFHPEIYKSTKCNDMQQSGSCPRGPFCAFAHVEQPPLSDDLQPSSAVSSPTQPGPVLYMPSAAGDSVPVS"}
{"Sequence": "GUUCAAACCUGUGGUACCAUGGCCCCAUGUUGAAGGAGUAGAAGUGGACUUAGAGUCUAUUAGAAGAAAAAACAAGGCGAAAAAUGAACAAGAGCGCCAUGCUGGAGGAGAUAACCAGAA", "bound/input enrichment": "0.628 ratio"}
{"Sequence": "UAUUUAAAGUGUAAGUAGUUAUAUUUAAUGACCUCAUCCUGAGUUUCUUGUUCAUUAAAGUAGCUUUCAUUUCUACUAAUAAGAAUAAACAGAAGGUUUGUGUGAGCAGACACUCAGAAC", "bound/input enrichment": "0.579 ratio"}
{"Sequence": "AUCAGUAGAAUUACAUAAUACUAAAGAUACAGUUGAAAGGAUAUUCCACGUAUGUGUUGUAGUUACUAAAAGAAUUAUAGCUGUUAUUGCCUUGUAUUUAUAACCCUUGUUGCAGGUUUC", "bound/input enrichment": "0.857 ratio"}
{"Sequence": "UUUUAUUGAUCAGGUCUGUAAAUGUGUACUAAAAAAAUCAGAGUUUAUUUAUAAACAGAAUAGUUUAUUUAAAGAGAAGUUCUUUUCCUUAUUGAUAUCAUGGUAUGCAUUAAUUCCAUU", "bound/input enrichment": "0.176 ratio"}
{"Sequence": "UGGGUUUGGGGUAGAAGGGUGGGAAGGGGCAGGAUAAGUGGAAUCUCUAGGGUGUAUGGGAAGUAGAGGGCAGUUAGUUCUAAGUGGGCUUUUAUGUUCCCUGUUGUGAGGGUGAGAACA", "bound/input enrichment": "1.05 ratio"}
{"Sequence": "GACCUCCUGAACUUCUAGCUUUCAAGCUGUGGCUGUUUUAGAUACUGAUUUUAUUUUCUUUACAAUUUUCCCCUGUUUCCUGCCUUCUCUUCCCUGUUCCCAAGGUUUGACUCAAUGGAU", "bound/input enrichment": "2.69 ratio"}
{"Sequence": "CUACACCAGAUAUUUUAACUGUUUUAAAGUUACAAACAAGCUUUGCUUUCUGCAUUUAAAUAGAAUACUUUUGUAUUGUGCUUCAGAUGUGUGGCGAUGUUAGUUUGCUCUUAUAAUAUU", "bound/input enrichment": "0.459 ratio"}
{"Sequence": "GUGUGUGGGGUAGCCUUGGCUCCUGCCUUGGCCUUGCCUCUCCUUCCUGUCACCUGCCCCUAGUUAUUUUUUUUUAACCACCACGUGAUUAUGGUCGGCGCUGCCUCCUCCCGACCUGCU", "bound/input enrichment": "5.63 ratio"}
{"data": "Set 2", "SMILES": "CC(=O)Nc1c(C(C)=O)c(=O)n(C)c2nc(-c3ccc(Cl)cc3Cl)c(-c3ccc(Cl)cc3)cc12", "effect on": "cell-free assay", "technique": "competition with immobilised ligand", "concentration": "1 µM"}
{"target": "CDKL2 (Homo sapiens, UniProt Q92772)", "remaining binding [%]": 100}
{"target": "MAK (Homo sapiens, UniProt P20794)", "remaining binding [%]": 100}
{"target": "HIPK4 (Homo sapiens, UniProt Q8NE63)", "remaining binding [%]": 89}
{"data": "Set 3", "organism": "Plasmodium berghei", "mode": "inhibitor", "cell line": "Huh-7", "strain": "GFP-expressing, liver stage", "concentration": "10 µM", "time": "24 h", "baseline": "untreated control"}
{"Structure (SMILES)": "CC(=O)NS(=O)(=O)c1ccc(NC(=O)c2ccccc2C(=O)O)cc1", "infection rate": "82.9%"}
{"Structure (SMILES)": "C[C@H](CCC(=O)O)[C@H]1CC[C@H]2[C@@H]3C(=O)C[C@@H]4CC(=O)CC[C@]4(C)[C@H]3CC(=O)[C@]12C", "infection rate": "110%"}
{"Structure (SMILES)": "CN(C)CCC(c1ccccc1)c1ccccn1 (stereo not drawn)", "infection rate": "81%"}
{"data": "Set 4", "SMILES": "O=Nc1c(-c2c(O)[nH]c3cc(Br)ccc23)[nH]c2ccccc12", "effect on": "enzyme activity", "mode": "inhibitor", "concentration": "0.5 µM", "baseline": "control"}
{"target": "MET (Homo sapiens, UniProt P08581)", "remaining activity [%]": 70}
{"target": "MAPK1 (Homo sapiens, UniProt P28482)", "remaining activity [%]": 113}
{"target": "PNCK (Homo sapiens, UniProt Q6P2M8)", "remaining activity [%]": 105}
{"target": "CDC42BPB (Homo sapiens, UniProt Q9Y5S2)", "remaining activity [%]": 97.5}
{"target": "PLK3 (Homo sapiens, UniProt Q9H4B4)", "remaining activity [%]": 95.3}
{"target": "AKT2 (Homo sapiens, UniProt P31751)", "remaining activity [%]": 101}
{"target": "MINK1 (Homo sapiens, UniProt Q8N4C8)", "remaining activity [%]": 47.8}
{"target": "RPS6KA4 (Homo sapiens, UniProt O75676)", "remaining activity [%]": 56.1}
{"target": "Cyclin-dependent kinase 9, with cyclin K (CDK9, Homo sapiens, UniProt P50750)", "remaining activity [%]": 37.5}
{"target": "MAPK11 (Homo sapiens, UniProt Q15759)", "remaining activity [%]": 99.6}
{"target": "GRK4 (Homo sapiens, UniProt P32298)", "remaining activity [%]": 90.1}
{"target": "PAK3 (Homo sapiens, UniProt O75914)", "remaining activity [%]": 99.7}
{"target": "NEK3 (Homo sapiens, UniProt P51956)", "remaining activity [%]": 84.4}
{"note": "Excerpt of the above (set 3):"}
{"Structure (SMILES)": "CC(=O)NS(=O)(=O)c1ccc(NC(=O)c2ccccc2C(=O)O)cc1", "infection rate": "82.9%"}
{"Structure (SMILES)": "C[C@H](CCC(=O)O)[C@H]1CC[C@H]2[C@@H]3C(=O)C[C@@H]4CC(=O)CC[C@]4(C)[C@H]3CC(=O)[C@]12C", "infection rate": "110%"}
{"Structure (SMILES)": "CN(C)CCC(c1ccccc1)c1ccccn1 (stereo not drawn)", "infection rate": "81%"}
